Assay results from different studies.
Numbers after ± are the reported error.

N=C(N)NCCC[C@@H]1NC(=O)[C@H](CCCCNC(=O)CC[C@H](NC(=O)CCOCCOCCOCCOCCNC(=O)CC[C@H](NC(=O)CN2CCN(CC(=O)O)CCN(CC(=O)O)CCN(CC(=O)O)CC2)C(=O)NCCOCCOCCOCCOCCC(=O)N[C@@H](CCC(=O)NCCCC[C@@H]2NC(=O)[C@@H](Cc3ccccc3)NC(=O)[C@H](CC(=O)O)NC(=O)CNC(=O)[C@H](CCCNC(=N)N)NC2=O)C(=O)NCCCC[C@@H]2NC(=O)[C@@H](Cc3ccccc3)NC(=O)[C@H](CC(=O)O)NC(=O)CNC(=O)[C@H](CCCNC(=N)N)NC2=O)C(=O)NCCCC[C@@H]2NC(=O)[C@@H](Cc3ccccc3)NC(=O)[C@H](CC(=O)O)NC(=O)CNC(=O)[C@H](CCCNC(=N)N)NC2=O)NC(=O)[C@@H](Cc2ccccc2)NC(=O)[C@H](CC(=O)O)NC(=O)CNC1=O [indium-111 labelled]  tissue uptake (female athymic nude mice, eyes; intravenous, 3 µCi, 72 h, U-87 MG glioma xenograft): 0.21 ± 0.12 %ID/g
CC(C)C[C@H](NC(=O)[C@@H]1CCCN1C(=O)[C@H](CCCCN)NC(=O)[C@@H](N)CO)C(=O)N1CCC[C@H]1C(=O)N[C@@H](CCC(=O)O)C(=O)N[C@H](C(=O)N[C@H](C(=O)N[C@@H](CC(=O)O)C(=O)N[C@@H](CCC(=O)O)C(=O)N[C@@H](Cc1ccc(O)cc1)C(=O)N[C@@H](Cc1cn(CCOCCOCCOCCNC(=O)CCc2ccc(O)c(CN(CCN(CC(=O)O)Cc3cc(CCC(=O)NCCCC[C@H](NC(=O)N[C@@H](CCC(=O)O)C(=O)O)C(=O)O)ccc3O)CC(=O)O)c2)nn1)C(=O)O)[C@@H](C)O)C(C)C [gallium-68 labelled]  standardized uptake value (NMRI nu/nu mice, LNCaP tumour, liver; 135.34 nmol/kg, low molar activity): 0.07 g/g
CCCCCC(=O)N[C@H]1CSCc2cc(CSCCNC(=O)CCCCCNC(=O)CC[C@H](NC(=O)CCC(C(=O)O)N3CCN(CC(=O)O)CCN(CC(=O)O)CCN(CC(=O)O)CC3)C(=O)NCCCOc3ccc4nccc(C(=O)NCC(=O)N5CC(F)(F)C[C@H]5C#N)c4c3)cc(c2)CSC[C@@H](C(=O)O)NC(=O)[C@H](Cc2ccccc2)NC(=O)[C@H](CCC(N)=O)NC(=O)[C@H]([C@@H](C)O)NC(=O)[C@@H]2CCCN2C(=O)[C@@H]2CCCN2C1=O (some centres unmarked)  time intact in blood (radio-HPLC; mouse; intravenous): ≥ 30 min
CSCC[C@H](NC(=O)[C@H](CC(C)C)NC(=O)[C@H](Cc1c[nH]cn1)NC(=O)CNC(=O)[C@@H](NC(=O)[C@H](C)NC(=O)[C@H](Cc1c[nH]c2ccccc12)NC(=O)[C@H](CCC(N)=O)NC(=O)CCCCCNC(=O)CNC(=O)CNC(=O)CNC(=O)CSC(C)=O)C(C)C)C(N)=O [technetium-99m labelled]  tissue uptake (healthy Swiss mouse, stomach, contents removed; intravenous, 18.5 MBq, 90 min): 0.83 ± 0.32 %ID/g
CCCC[C@H](NC(=O)CNC(=O)[C@H](CO)NC(=O)CNC(=O)c1ccc(NN)nc1)C(=O)N[C@H]1CC(=O)NCCCC[C@@H](C(N)=O)NC(=O)[C@H](Cc2c[nH]c3ccccc23)NC(=O)[C@H](CCCNC(=N)N)NC(=O)[C@@H](Cc2ccccc2)NC(=O)[C@H](Cc2c[nH]cn2)NC1=O [technetium-99m labelled]  uptake (C57 mouse, B16/F1 melanoma, bone; intravenous, 2 h): 0.12 ± 0.13 %ID/g
C[C@@H](O)[C@H](NC(=O)[C@@H]1CSSC[C@H](NC(=O)[C@@H](Cc2ccccc2)NC(=O)CN2CCN(CC(N)=O)CCN(CC(N)=O)CCN(CC(N)=O)CC2)C(=O)N[C@@H](Cc2ccc(O)cc2)C(=O)N[C@H](Cc2c[nH]c3ccccc23)C(=O)N[C@@H](CCCCN)C(=O)N[C@@H]([C@@H](C)O)C(=O)N1)C(=O)O [lead-212 labelled]  survival (athymic nude mice; 20 µCi single dose): 100%
N=C(N)NCCC[C@@H]1NC(=O)[C@H](CCCCNC(=O)CCOCCOCCOCCOCCNC(=O)CN2CCN(CC(=O)O)CCN(CC(=O)O)CCN(CC(=O)O)CC2)NC(=O)[C@@H](Cc2ccccc2)NC(=O)[C@H](CC(=O)O)NC(=O)CNC1=O [indium-111 labelled]  tissue uptake (female athymic nude mice, lungs; intravenous, 3 µCi, 0.5 h, U-87 MG glioma xenograft): 4.6 ± 0.39 %ID/g
CCCCCCCCCCCCCCCCCC(=O)OC[C@H](NC(=O)[C@H](Cc1c[nH]c2ccccc12)NC(=O)[C@H](Cc1c[nH]cn1)NC(=O)[C@@H]1CCC(=O)N1)C(=O)N[C@@H](Cc1ccc(O)cc1)C(=O)N[C@H](CC(C)C)C(=O)N[C@@H](CC(C)C)C(=O)N[C@@H](CCCNC(=N)N)C(=O)N1CCC[C@H]1C(=O)NCC  conversion to leucine (HPLC; human plasma; 1 mg/mL, 5 weeks, 37 °C): 80.3%
CCCC[C@H](NC(=O)CCCCCCCNC(=O)c1ccc(NN)nc1)C(=O)N[C@H]1CC(=O)NCCCC[C@@H](C(N)=O)NC(=O)[C@H](Cc2c[nH]c3ccccc23)NC(=O)[C@H](CCCNC(=N)N)NC(=O)[C@@H](Cc2ccccc2)NC(=O)[C@H](Cc2c[nH]cn2)NC1=O [technetium-99m labelled]  uptake (C57 mouse, B16/F1 melanoma, spleen; intravenous, 0.5 h): 0.94 ± 0.72 %ID/g
CSCC[C@H](NC(=O)[C@H](CC(C)C)NC(=O)[C@H](Cc1c[nH]cn1)NC(=O)CNC(=O)[C@@H](NC(=O)[C@H](C)NC(=O)[C@H](Cc1c[nH]c2ccccc12)NC(=O)[C@H](CCC(N)=O)NC(=O)CCCCCCCNC(=O)CCC(=O)Nc1ccc(CNC23CNCCNCC(N)(CNCCNC2)CNCCNC3)cc1)C(C)C)C(N)=O [copper-64 labelled]  tissue uptake (female SCID mice, PC-3 xenograft, pancreas; intravenous, 0.6 MBq, 24 h): 36.9 ± 3.77 %ID/g
N=C(N)NCCC[C@@H]1NC(=O)[C@H](CCCCNC(=O)CCOCCOCCOCCOCCNC(=O)CC[C@H](NC(=O)CCOCCOCCOCCOCCNC(=O)CC[C@H](NC(=O)CN2CCN(CC(=O)O)CCN(CC(=O)O)CCN(CC(=O)O)CC2)C(=O)NCCOCCOCCOCCOCCC(=O)N[C@@H](CCC(=O)NCCOCCOCCOCCOCCC(=O)NCCCC[C@@H]2NC(=O)[C@@H](Cc3ccccc3)NC(=O)[C@H](CC(=O)O)NC(=O)CNC(=O)[C@H](CCCNC(=N)N)NC2=O)C(=O)NCCOCCOCCOCCOCCC(=O)NCCCC[C@@H]2NC(=O)[C@@H](Cc3ccccc3)NC(=O)[C@H](CC(=O)O)NC(=O)CNC(=O)[C@H](CCCNC(=N)N)NC2=O)C(=O)NCCOCCOCCOCCOCCC(=O)NCCCC[C@@H]2NC(=O)[C@@H](Cc3ccccc3)NC(=O)[C@H](CC(=O)O)NC(=O)CNC(=O)[C@H](CCCNC(=N)N)NC2=O)NC(=O)[C@@H](Cc2ccccc2)NC(=O)[C@H](CC(=O)O)NC(=O)CNC1=O [indium-111 labelled]  tissue uptake (athymic nude mice, female, U-87 MG glioma xenograft, bone; intravenous, 3 µCi, 24 h): 0.88 ± 0.03 %ID/g
CCCC[C@H](NC(=O)CNC(=O)CNC(=O)c1ccc(NN)nc1)C(=O)N[C@H]1CC(=O)NCCCC[C@@H](C(N)=O)NC(=O)[C@H](Cc2c[nH]c3ccccc23)NC(=O)[C@H](CCCNC(=N)N)NC(=O)[C@@H](Cc2ccccc2)NC(=O)[C@H](Cc2c[nH]cn2)NC1=O [technetium-99m labelled]  uptake (C57 mouse, B16/F1 melanoma, muscle; 2 h, with: L-lysine 12 mg): 0.06 ± 0.05 %ID/g
N=C(N)NCCC[C@@H]1NC(=O)[C@H](CCCCNC(=O)CC[C@H](NC(=O)CCOCCOCCOCCOCCNC(=O)CN2CCN(CC(=O)O)CCN(CC(=O)O)CCN(CC(=O)O)CC2)C(=O)NCCCC[C@@H]2NC(=O)[C@@H](Cc3ccccc3)NC(=O)[C@H](CC(=O)O)NC(=O)CNC(=O)[C@H](CCCNC(=N)N)NC2=O)NC(=O)[C@@H](Cc2ccccc2)NC(=O)[C@H](CC(=O)O)NC(=O)CNC1=O [indium-111 labelled]  tissue uptake (female athymic nude mice, blood; intravenous, 3 µCi, 4 h, U-87 MG glioma xenograft): 0.22 ± 0.05 %ID/g
N=C(N)NCCC[C@@H]1NC(=O)[C@H](CCCCNC(=O)CNC(=O)CNC(=O)CNC(=O)CC[C@H](NC(=O)CNC(=O)CNC(=O)CNC(=O)[C@H](CCCCNC(=O)c2ccc(NN)nc2)NC(=O)c2ccc(NN)nc2)C(=O)NCC(=O)NCC(=O)NCC(=O)NCCCC[C@@H]2NC(=O)[C@@H](Cc3ccccc3)NC(=O)[C@H](CC(=O)O)NC(=O)CNC(=O)[C@H](CCCNC(=N)N)NC2=O)NC(=O)[C@@H](Cc2ccccc2)NC(=O)[C@H](CC(=O)O)NC(=O)CNC1=O [technetium-99m labelled]  tissue ratio (female athymic nude mice; intravenous, 1 h, U-87 MG glioma xenograft; baseline: tumour over blood): 10.9 ± 0.82
